# Results from different studies.
# Every numbered part comes from another study and shows a few of its results, in no order. Changes are numbered by the printed parent chain.

# Series 1
# Target: RING finger protein unkempt homolog, zinc fingers 1-6, GST-SBP tag (UNK, Homo sapiens, UniProt Q9C0B0, residues 30-357)
# Technique: RNA Bind-n-Seq
# Molecule type: RNA
# Medium: in vitro
# Tested at: not given
# Setting: RNA with constant flanks, human and mouse sites, ends assumed
# Relative to: input RNA pool
# Reading: higher = stronger binding
# Shared flanks, not repeated: GGGAGUUCUACAGUCCGACGAUC … CAACAGAGGAUUGAGCAUCA
# Target sequence (chain): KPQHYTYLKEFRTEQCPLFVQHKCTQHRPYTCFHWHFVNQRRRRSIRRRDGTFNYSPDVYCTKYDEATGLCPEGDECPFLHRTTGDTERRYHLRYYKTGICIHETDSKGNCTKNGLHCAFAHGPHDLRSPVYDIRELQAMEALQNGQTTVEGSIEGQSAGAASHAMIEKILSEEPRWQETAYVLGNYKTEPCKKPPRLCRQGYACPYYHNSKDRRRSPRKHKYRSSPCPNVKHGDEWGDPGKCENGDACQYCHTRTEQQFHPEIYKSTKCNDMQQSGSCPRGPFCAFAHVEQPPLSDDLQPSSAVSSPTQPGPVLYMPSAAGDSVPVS
Oligonucleotide,bound/input enrichment
GCGCGCCGCCAACCCGGUGCUGACUGGGUUACUUUUUUAAACACUAGGAAUGGUAAUUUCUACUCUUCUGGACUUCAAACUAAGAAGUUAAAGAGACUUCUCUGUAAAUAAACAAAUCUC,0.732 ratio
AUUUUCUUUAUGUGUGAAGACACAAAGUAUGGGGGAAGACAGCAAUCAAAACUAACUUUUUGUAGAUAGCCAUUUCAUUUCUUUAAACUGUUUCAACGCCAAUAUGUAUUCUACAAAAGA,1.46 ratio
UUUAAGUCUGGUGGCAUCCCAGCGCUGGUGAAAAUGCUUGGGUCACCAGUGGAUUCUGUACUGUUCUACGCCAUCACGACACUGCAUAAUCUCCUGCUCCAUCAGGAAGGAGCUAAAAUG,0.0529 ratio
AAAUCCCCCUGCCUAUAUUAUAAUGGAUCAUGCGAUAUCAGUAUGGGAAGUGUAUGACAUGGUUUAAAAAGAACUCAUUAUGAAAAACAAAACAAAAAACAGAAUCAAAAAUAAAAUAAA,0.304 ratio
UCCCCCUCACUUUUUCUCCUUAUUAUUGAGAGUAUAAACCUGCAAAGCUCAGCUCUACUUUGGUUUUGAAAGUUGAAGCUUCUCUGCUUCCGUGCGAGCACAGGCCUCUGUCCCCUUCGA,0.297 ratio
AGGAACAAGAUGAAAAGAGUGAAACUUCACAGCUGCUUUGUUAAGGCUCCCCAAUACCCUUAGGGGCACGGAGGACGCAGCUCGCGAAAUCCACUUCCGAUUGGUCGUCUGUGACCUCAC,0.12 ratio
CAGCCGCUCCUGGUAUCAGAGCUGCUUUCCAGAGGGCAGCACAGCCAGGGCCGGGUGUCUUUAGGGAUCAGUUUUUCCAAGACUCCAGAAGGUGCCAGGUUCUCCCCUUGAGCUCCUGCU,0.0631 ratio
GUGAAGAACACCAUCUACUGUAACGUGGAGCCAUCGGAAUCCAAUAUGCGCUGGGCACCGGAGUUCAUGAUUGACACUCUGGAGAACCCUGCCGCUCACACUUUCACCUACACGGGGCUC,0.073 ratio

# Series 2
# Target: RNA binding protein fox-1 homolog 2, RRM domain, GST-SBP tag (RBFOX2, Homo sapiens, UniProt O43251-10, residues 100-194)
# Technique: RNA Bind-n-Seq
# Molecule type: RNA
# Medium: in vitro
# Tested at: 365 nM
# Setting: natural RNA segment, single round, ends assumed
# Relative to: no-protein control
# Reading: higher = stronger binding
# Shared flanks, not repeated: GGGAGUUCUACAGUCCGACGAUC … UGGAAUUCUCGGGUGCCAA
# Residues (chain): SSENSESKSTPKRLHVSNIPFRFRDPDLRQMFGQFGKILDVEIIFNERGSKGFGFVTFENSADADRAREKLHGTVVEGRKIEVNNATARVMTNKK
Oligonucleotide,RBNS enrichment (R)
CUUUAAAUGUUUAUGAGCUAGUUUAUGCCUCGGAAGACAUAAGGUUUCCCAUUCCAAUUUGAAUCUUUCUAUUUCUUUAGCAUCAUAUUGCUCUUCUUCUUUUAGACUGG,0.686
AUUAUUUUAAUUAAUUUUUUUCAUAAUUGAGACAGAACUGUUUGUUAUGUACCAUAAUGCUAAAUAAAACUGUGGCACUUUUCACCAUAAUUUAAUUUAGUGGAAAAAGA,0.367
ACACCAUAAAAGAAAUAGGCUUUUUGUGCCUUUUGCUGUUAAUGUUUAAUUUACAAACUGUUUUGGUAAAUCUCUUAAUGUAAGUAGCUAUUUGACUUUGGAAUUUUGCA,15.4
GAAGGACAGGGAGACAGCAACCAUCGCCUGACCACGCCGACCACAGGGCCUUGAAUCCUUUUUUGUUUUCAACAGUCUUGCUGAAUUAAGCAGAAAGGGCCUUGAAUCCU,0.373
UCGAGAAUGAAGACUGCAGUCAGGAUCAAAUCAAGUCACAGAAGCCAUAUUCAUGCAGGUGCUAACCGCCUUUUCUACUGGUGCAACUGAAAGGAAUAUGGUAACAUGGU,0.66
UUAAUGACCAUUUCCUGGAAUCAGUUUAUUAUACUGAAAACUGGGGGUGGGAGUAGGGAGCUAGUUUGUUGAUAAAUAGUUCCCAUUUCCCCAUGGAGAAUUUGACAUAC,0.312
GAAACAGGAAGAAGUAUGGUGGGGGCUGGGGUAGACUCCCCUGGAGCCAAGCCUAUCCAGCUAACAAGAGCUCCCUGGGGCUGGUCACAGCUGGCUCAUGAUGCUGAACU,0.805
CAGGGGGCUGUGUCUGCGUGUCAGUUUGUGUCUGUCUCGGGGAAUGUGUGUCUGUGGCCCAAGCAGGUGACAGGAAGAGAUGGGGGGCCUCAACCAACUUAGUGACUUGU,2.62

# Series 3
# Target: Histone acetyltransferase KAT6A, winged helix 2, GST fusion (KAT6A, Homo sapiens, UniProt Q92794, residues 85-181)
# Technique: protein binding microarray
# Molecule type: double-stranded DNA, one strand shown
# Medium: in vitro
# Tested at: not given
# Setting: 8-mer, flanks averaged, mean of 2 arrays, mostly near background
# Relative to: not given
# Reading: higher = stronger binding
# Residues (chain): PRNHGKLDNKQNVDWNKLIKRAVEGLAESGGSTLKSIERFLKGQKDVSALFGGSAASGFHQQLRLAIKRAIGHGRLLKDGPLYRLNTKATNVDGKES
Oligonucleotide,E-score
CGATTGCG,0.0645
CCATCGAA,-0.134
ATTGATAG,0.0794
CACAAGAA,0.0899
CCTCTAAG,-0.0376
CCTGGGTA,0.00587
CGAAGGCC,0.271
GACGGTGA,-0.0657
CGCTATGA,0.0315
CCCATAGC,-0.0782
GCGGCCCA,0.111
ATAACAAA,0.123
TAGCCCAA,0.0471
ACGAGCCG,0.0811
TGGACCCA,-0.148
CGACTTAG,-0.00808
AGTTATTA,-0.0692
GTATGGTA,-0.162
ACCAACCG,0.0842
ACGGCACT,0.069
ACTGACTC,-0.179
GAGATCGA,0.0591
ACATTTAA,0.0507
GATTGGGA,-0.0374

# Series 4
# Target: CCNB2, cyclin fold, Cln2 fusion (human)
# Technique: yeast growth competition, sequencing
# Medium: yeast
# Setting: weak parent motif
# Relative to: not given
# Reading: higher = stronger binding
# Parent: GMNC docking peptide (human); KNAKRNLSSEFAN
Change,normalised enrichment score
A12W,0.24
S8R,0.454
N2H,0.532
R5S,0.668
S8L,1.13
R5A,0.301
F11Q,0.303
S9W,0.812
S9V,0.812
E10L,-0.0732
F11P,-0.322
F11E,0.0342
L7I,0.0813
A3I,1.76
A3M,0.444
S8G,0.653
K4N,0.514
N6K,0.12
A12H,0.208
A12S,0.525
L7K,0.699
L7C,0.0785
N6Y,-0.202
A12D,0.349
S8C,0.416
